Assay results pooled from the literature.
Numbered parts are unrelated; each lists some results of a single study.

Sample 1
Target: Prothrombin, mature alpha-thrombin (F2, Homo sapiens, UniProt P00734)
Method: aptamer microarray, sandwich
Molecule type: DNA with 2'F-ANA
Medium: in vitro
Tested at: 200 nM
Setting: whole 15-mer aptamer, many near background
Together with: Cy3 exosite-II aptamer, 400 nM
Direction: higher = stronger binding
Strand: GGTTGGTGTGGTTGG
Under “mean fluorescence intensity”, `2'F-ANA at 1 2 6 10 11 13 15` is recorded as 55 a.u.
Under “mean fluorescence intensity”, `2'F-ANA at 3 5 6 7 8 11 13` is recorded as 107 a.u.
For `2'F-ANA at 3 4 5 6 8 12 13`, “mean fluorescence intensity” read 140 a.u.
`2'F-ANA at 1 2 3 4 6 7 8 11 12 14 15`: “mean fluorescence intensity” 75.8 a.u.
Under “mean fluorescence intensity”, `2'F-ANA at 1 3 5 7 8 10 12` is recorded as 48.9 a.u.
Under “mean fluorescence intensity”, `2'F-ANA at 1 2 9 12 14` is recorded as 74.3 a.u.
`2'F-ANA at 1 2 5 6 8 9 10 11 15`: “mean fluorescence intensity” 47.3 a.u.
`2'F-ANA at 1 2 4 6 7 8 9 13`: “mean fluorescence intensity” 80.2 a.u.
`2'F-ANA at 1 4 6 7 8 10 11 12 15` — result for “mean fluorescence intensity”: 58 a.u.
For `2'F-ANA at 4 12 13 14`, “mean fluorescence intensity” read 118 a.u.
For `2'F-ANA at 1 2 7 11 12 13 14`, “mean fluorescence intensity” read 60.1 a.u.
`2'F-ANA at 2 4 5 8` — result for “mean fluorescence intensity”: 79 a.u.
For `2'F-ANA at 4 5 7 8 10 11 12 13 14 15`, “mean fluorescence intensity” read 75 a.u.
`2'F-ANA at 1 4 5 7 10 11 14 15` — result for “mean fluorescence intensity”: 134 a.u.
For `2'F-ANA at 1 2 3 4 5 10`, “mean fluorescence intensity” read 47.8 a.u.
For `2'F-ANA at 1 9 10 11 12 15`, “mean fluorescence intensity” read 65.4 a.u.
For `2'F-ANA at 1 3 4 5 7 8 10 11 14`, “mean fluorescence intensity” read 48.7 a.u.
`2'F-ANA at 1 6 10 11 12` — result for “mean fluorescence intensity”: 64.6 a.u.
Under “mean fluorescence intensity”, `2'F-ANA at 1 2 4 5 6 10 11` is recorded as 43.1 a.u.
`2'F-ANA at 1 4 5 7 8 10 11 12 13 15`: “mean fluorescence intensity” 46 a.u.
For `2'F-ANA at 2 3 4 5 8 9 11 13 14`, “mean fluorescence intensity” read 46.1 a.u.
`2'F-ANA at 1 2 3 4 6 8 12 14 15`: “mean fluorescence intensity” 102 a.u.
`2'F-ANA at 2 3 5 7 8 9 10 11 12 13 15` — result for “mean fluorescence intensity”: 62.8 a.u.
Under “mean fluorescence intensity”, `2'F-ANA at 1 3 5 6 8 9 12` is recorded as 131 a.u.

Sample 2
Target: Histone acetyltransferase KAT6A, winged helix 2, GST fusion (KAT6A, Homo sapiens, UniProt Q92794, residues 85-181)
Method: protein binding microarray
Molecule type: double-stranded DNA, one strand shown
Medium: in vitro
Tested at: not given
Setting: 8-mer, flanks averaged, mean of 2 arrays, mostly near background
Relative to: not given
Direction: higher = stronger binding
Construct (chain): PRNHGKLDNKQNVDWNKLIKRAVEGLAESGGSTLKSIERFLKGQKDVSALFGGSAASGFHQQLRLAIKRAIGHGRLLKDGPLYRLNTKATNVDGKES
The E-score of `CCGGTTCC` is reported as 0.0517.
For `GAGTGAAC`, the E-score was -0.124.
The E-score of `AGTCTAGC` is reported as -0.208.
For `GCCTTAGC`, the E-score was 0.113.
The E-score of `GACAGGCC` is reported as 0.0125.
`AATTCTCA` gave an E-score of -0.017.
The E-score of `GGTATGTA` is reported as -0.287.
With `ATTCGCCC` the E-score was 0.0707.
For `ACGGGGCC`, the E-score was -0.0773.
For `CTCAAGCC`, the E-score was 0.0476.
The E-score of `GTTAACCA` is reported as 0.0713.
The E-score of `CGTCAATA` is reported as -0.0157.
The E-score of `AATACTGG` is reported as -0.114.
For `ACGCACGC`, the E-score was 0.223.
With `CATCTAAC` the E-score was -0.0837.
`TAGTTCAA` has an E-score of -0.0162.
`CAGCACGG` gave an E-score of 0.0957.
With `AAACTTCC` the E-score was 0.00385.
For `CGCTGTCC`, the E-score was 0.159.
With `GCCATTCC` the E-score was 0.0678.
The E-score of `AATAATGA` is reported as -0.0607.
The E-score of `CTAAGTGA` is reported as 0.046.
For `GGGCCGAA`, the E-score was 0.0791.

Sample 3
Target: Ras GTPase-activating protein-binding protein 1, full length (G3BP1, Homo sapiens, UniProt Q13283)
UniProt Q13283, sequence (whole entry, looked up): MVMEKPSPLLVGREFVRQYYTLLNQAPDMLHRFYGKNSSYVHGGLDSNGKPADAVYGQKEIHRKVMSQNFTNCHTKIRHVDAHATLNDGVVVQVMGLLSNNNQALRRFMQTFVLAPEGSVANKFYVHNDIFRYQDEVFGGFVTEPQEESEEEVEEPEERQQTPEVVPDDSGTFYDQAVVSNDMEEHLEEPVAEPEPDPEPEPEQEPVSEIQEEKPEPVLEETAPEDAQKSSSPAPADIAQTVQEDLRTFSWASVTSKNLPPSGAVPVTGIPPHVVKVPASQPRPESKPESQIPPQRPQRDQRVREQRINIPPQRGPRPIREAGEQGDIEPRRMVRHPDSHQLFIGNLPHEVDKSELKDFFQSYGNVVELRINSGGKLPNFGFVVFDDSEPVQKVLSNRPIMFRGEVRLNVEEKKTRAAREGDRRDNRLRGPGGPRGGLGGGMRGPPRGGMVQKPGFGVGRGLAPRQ
Method: RNA Bind-n-Seq
Molecule type: RNA
Medium: in vitro
Tested at: 200 nM
Setting: whole 134-nt RNA, ends assumed
Together with: 150 mM LiCl
Relative to: input library
Direction: higher = stronger binding
All molecules: 7-deaza-guanosine replaces G
Constant ends, left off below: GGGAGUUCUACAGUCCGACGAUC … UGGAAUUCUCGGGUGUCAAGG
With `CACAGACAACACGCACCCACACAGACACAGAGGGAAGGGGUUGGGAUGGGGACAUGGUGCACAGCAGGGCGGGGUAGGACCCCAGCCCCU` the log2 enrichment was -0.813.
`UAAGGCCAGUAAAAUUUUAGUACCUGGAGGUUUGACUCUAAUUUUUGCACUGAUGGUGCCAAAGGGCCCUGAGUCAAAAGGAUAGCCAAG` gave a log2 enrichment of -2.58.
With `CACAGACAACACGCACCCACACAGACACAGAGGGAAGGGGUUGGGAUGGGGACAGGGUGCACAGCAGGGCGGGGAAGGACCCCAGCCCCU` the log2 enrichment was 1.09.
`GUGCUACACAUCGUAUGUACCGAAUCGGGGUUUUUUUGGGGUUUUUUUGGGGUUUUUUUGGGGAAAGUAUUAUGUUACGCCGUUCGGAUC` has a log2 enrichment of 2.07.
The log2 enrichment of `GCAGGAAGUAAAAACAAAUGGAAAUGCUUCGGAUAGUGGCAGGGGUGGGGGUUGCUAAGGAAAGGGUGAAAUGGGAGUGGGUAAAGAGUU` is reported as 0.229.
With `GCAGGAAGUAAAAACAAAUGGAAAUGCUUCGGCUAGUGGCAGGGGUGGGGGUUGCUAAGGAAAGGGUGGGAUGGGAGUGGGUAAAGAGUU` the log2 enrichment was 0.291.
The log2 enrichment of `UGGCCCUGGUGGCAUGCGGGGAGGAAGAGGUGGCCUCAUGGAUCGUGGUGGUCCCGGUGGAAUGUACAGAGGUGGCCGUGGUGGAGACAG` is reported as -0.165.
For `UCAAGUCCUGUGCUACACAUCGUAUGUACCGAAUCGGUUUGGUUUGGGUUUGGGGAAAGUAUUAUGUUACGCCGUUCGGAUCUGCACUUC`, the log2 enrichment was -0.927.
The log2 enrichment of `GAAAUACCAUCGGAAGACGAUGGGACGGUGCUGCUCUCCACGGUUACAGCCCAGUUUCCAGGGGCGUGUGGGCUUCGCUACAGGAAUCCA` is reported as 0.184.
For `AGUCCUGUGCUACACAUCGUAUGUACCGAAUCGGGGUGGGGAAAAAAAGGGGAGGGGAAAGUAUUAUGUUACGCCGUUCGGAUCUGCACU`, the log2 enrichment was 0.151.
With `UGGCCCUGGUGGCAUGCGGGGAGGAAGAGGUGGCCUCAUGGAUCGUGGUGGUCCCGGUGGAAUGUUCAGAGGUGGCCGAGGUGGAGACAG` the log2 enrichment was -0.33.

Sample 4
Target: RNA binding protein fox-1 homolog 2, RRM domain, GST-SBP tag (RBFOX2, Homo sapiens, UniProt O43251-10, residues 100-194)
Method: RNA Bind-n-Seq
Molecule type: RNA
Medium: in vitro
Tested at: 365 nM
Setting: natural RNA segment, single round, ends assumed
Relative to: no-protein control
Direction: higher = stronger binding
Constant ends, left off below: GGGAGUUCUACAGUCCGACGAUC … UGGAAUUCUCGGGUGCCAA
Residues (chain): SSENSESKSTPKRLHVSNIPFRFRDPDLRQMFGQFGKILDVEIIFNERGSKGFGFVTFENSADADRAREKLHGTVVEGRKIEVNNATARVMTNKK
`CACUGCGUCUGGGCCUGAGACGUGCAUGGAGGGCUGUAAAGCCACGGAUUCCCCUCGCUGGAGAGGCUCCUGUCUGAUAGCGGUAGAUGAAAAAUAAGGUCGUUAUGACU` — result for “RBNS enrichment (R)”: 2.25.
For `CAGAUUUCAGCCCCACCCAGAGUGUGCUCUAGAUGUUGUUGAUUUGAAUGGUUUUCCCAGUUCCCACUCCACAUGGGGAAGUUGAAUGAAUGCACACCUGCUGCUCACUU`, “RBNS enrichment (R)” read 0.627.
`GCUAGUGUGGAGCUCAGCAUCCCCACCCCACCCCUCCUCCCUGUAGAGCUGAUUUGAGGCCUCCUUCUGGGGCUGGGCUCUGCAGGCCAGGUGGGUGUGGCCUGUGUUUU` — result for “RBNS enrichment (R)”: 3.41.
Under “RBNS enrichment (R)”, `UCACGUUAUAAAUGUUUUGUAGUGAACCCAGGGUGGGUGAGGGGGAAGCAUCUGUCUCACAUAGGCUGUAAGCUCUCUGAGAGCAGGCACCUGUCAUCCCAGUCCAUCCC` is recorded as 0.343.
`AUUAAUUAAUCAUGCUUGGGCUUACUUUUUCAGUUUGUAAGGUUAAGCAUAUGUGCAUGCGUGCGUGUGUAUAUAAAUGCCUUUUCCAUAUCUUAAAUGUCCCUGAUGAG`: “RBNS enrichment (R)” 0.623.
`UACAAAAAGACUGGCUAACCCCUCUUCCUAUUACCUUGAUCUCUUCCCCCAACUUCCUAACACUUAUUAAUUUAUGAAACUGUUUUUCUCAGCGCAGUUUUGUUUUGUGU`: “RBNS enrichment (R)” 0.828.
`UGCUGCCUAACUUCCCUGUGUUCUAUUUGAGAGGCGCCUGUCUGGAUAAAGUUGUCUUGAAAUUUCACAGUGGUCCUGUGCUUUCUUUGUGCUUCAGGGGAAUCCUUUCU`: “RBNS enrichment (R)” 1.16.
`AGAUUACAGUAUGUCCCAUCAAACAUCUGCUGUAGGUGAGGGAGUGGAUUUGAAGAGGGGUUGAAAGAAAGGAAGCAUUCCUCUUGCUUUAAACUAGUAUGUGCAUCAGA` — result for “RBNS enrichment (R)”: 6.28.
`ACUUCUUCCUAGCCAAUUCCUCAUUCUCUCACGUGACAACAGCUGAAAGUGCCAGGUGCUAGAUUCCUCCUCCUUGGAAUUGUGUUAGGCUAGUUGGUCCUCUUUGAGGA` — result for “RBNS enrichment (R)”: 0.411.
Under “RBNS enrichment (R)”, `AAUAGGGAAGAAGUGCCCUGCCUGCCAGCUUGGGAGUGAUUUGUACCUGUGUAUUUAUCCUUGAUCAUAGUUUGCUUAUUUAUGUUUAACUCUUCGGACUUCAGAGCACU` is recorded as 0.698.
`AUUGUGUGGCUUUCUGAGUAUUUGAACCCCAGUCCUGUGUCACCUUCCUUUUUCCUUCUAUGUCCCCUCUCUGCGGGGGGGGCGCUGAGGCUGAGGGGGAGCUGCGUCUU` — result for “RBNS enrichment (R)”: 0.19.
`AAAAAUGCCUUUAAAAACCUUCCUGAGACUUAAGCAUUCUGCCCCACUUACUAACUGCCAGUUCUCCAGCACUGAGGUGGGGCAGAUAACGGGGCAUAUUUAAGGGGGCA`: “RBNS enrichment (R)” 0.592.

Excerpt of the above (sample 2):
For `GCCTTAGC`, the E-score was 0.113.
The E-score of `GACAGGCC` is reported as 0.0125.
`AATTCTCA` gave an E-score of -0.017.
The E-score of `GGTATGTA` is reported as -0.287.
With `ATTCGCCC` the E-score was 0.0707.
For `ACGGGGCC`, the E-score was -0.0773.
For `CTCAAGCC`, the E-score was 0.0476.
The E-score of `GTTAACCA` is reported as 0.0713.
